Results from different studies.
Parts stem from different laboratories: compare values within a part only.

Sample 1
Target: DNA polymerase theta, ATPase domain (POLQ, Homo sapiens, UniProt O75417)
Sequence of UniProt O75417 (whole entry, unmodified, looked up): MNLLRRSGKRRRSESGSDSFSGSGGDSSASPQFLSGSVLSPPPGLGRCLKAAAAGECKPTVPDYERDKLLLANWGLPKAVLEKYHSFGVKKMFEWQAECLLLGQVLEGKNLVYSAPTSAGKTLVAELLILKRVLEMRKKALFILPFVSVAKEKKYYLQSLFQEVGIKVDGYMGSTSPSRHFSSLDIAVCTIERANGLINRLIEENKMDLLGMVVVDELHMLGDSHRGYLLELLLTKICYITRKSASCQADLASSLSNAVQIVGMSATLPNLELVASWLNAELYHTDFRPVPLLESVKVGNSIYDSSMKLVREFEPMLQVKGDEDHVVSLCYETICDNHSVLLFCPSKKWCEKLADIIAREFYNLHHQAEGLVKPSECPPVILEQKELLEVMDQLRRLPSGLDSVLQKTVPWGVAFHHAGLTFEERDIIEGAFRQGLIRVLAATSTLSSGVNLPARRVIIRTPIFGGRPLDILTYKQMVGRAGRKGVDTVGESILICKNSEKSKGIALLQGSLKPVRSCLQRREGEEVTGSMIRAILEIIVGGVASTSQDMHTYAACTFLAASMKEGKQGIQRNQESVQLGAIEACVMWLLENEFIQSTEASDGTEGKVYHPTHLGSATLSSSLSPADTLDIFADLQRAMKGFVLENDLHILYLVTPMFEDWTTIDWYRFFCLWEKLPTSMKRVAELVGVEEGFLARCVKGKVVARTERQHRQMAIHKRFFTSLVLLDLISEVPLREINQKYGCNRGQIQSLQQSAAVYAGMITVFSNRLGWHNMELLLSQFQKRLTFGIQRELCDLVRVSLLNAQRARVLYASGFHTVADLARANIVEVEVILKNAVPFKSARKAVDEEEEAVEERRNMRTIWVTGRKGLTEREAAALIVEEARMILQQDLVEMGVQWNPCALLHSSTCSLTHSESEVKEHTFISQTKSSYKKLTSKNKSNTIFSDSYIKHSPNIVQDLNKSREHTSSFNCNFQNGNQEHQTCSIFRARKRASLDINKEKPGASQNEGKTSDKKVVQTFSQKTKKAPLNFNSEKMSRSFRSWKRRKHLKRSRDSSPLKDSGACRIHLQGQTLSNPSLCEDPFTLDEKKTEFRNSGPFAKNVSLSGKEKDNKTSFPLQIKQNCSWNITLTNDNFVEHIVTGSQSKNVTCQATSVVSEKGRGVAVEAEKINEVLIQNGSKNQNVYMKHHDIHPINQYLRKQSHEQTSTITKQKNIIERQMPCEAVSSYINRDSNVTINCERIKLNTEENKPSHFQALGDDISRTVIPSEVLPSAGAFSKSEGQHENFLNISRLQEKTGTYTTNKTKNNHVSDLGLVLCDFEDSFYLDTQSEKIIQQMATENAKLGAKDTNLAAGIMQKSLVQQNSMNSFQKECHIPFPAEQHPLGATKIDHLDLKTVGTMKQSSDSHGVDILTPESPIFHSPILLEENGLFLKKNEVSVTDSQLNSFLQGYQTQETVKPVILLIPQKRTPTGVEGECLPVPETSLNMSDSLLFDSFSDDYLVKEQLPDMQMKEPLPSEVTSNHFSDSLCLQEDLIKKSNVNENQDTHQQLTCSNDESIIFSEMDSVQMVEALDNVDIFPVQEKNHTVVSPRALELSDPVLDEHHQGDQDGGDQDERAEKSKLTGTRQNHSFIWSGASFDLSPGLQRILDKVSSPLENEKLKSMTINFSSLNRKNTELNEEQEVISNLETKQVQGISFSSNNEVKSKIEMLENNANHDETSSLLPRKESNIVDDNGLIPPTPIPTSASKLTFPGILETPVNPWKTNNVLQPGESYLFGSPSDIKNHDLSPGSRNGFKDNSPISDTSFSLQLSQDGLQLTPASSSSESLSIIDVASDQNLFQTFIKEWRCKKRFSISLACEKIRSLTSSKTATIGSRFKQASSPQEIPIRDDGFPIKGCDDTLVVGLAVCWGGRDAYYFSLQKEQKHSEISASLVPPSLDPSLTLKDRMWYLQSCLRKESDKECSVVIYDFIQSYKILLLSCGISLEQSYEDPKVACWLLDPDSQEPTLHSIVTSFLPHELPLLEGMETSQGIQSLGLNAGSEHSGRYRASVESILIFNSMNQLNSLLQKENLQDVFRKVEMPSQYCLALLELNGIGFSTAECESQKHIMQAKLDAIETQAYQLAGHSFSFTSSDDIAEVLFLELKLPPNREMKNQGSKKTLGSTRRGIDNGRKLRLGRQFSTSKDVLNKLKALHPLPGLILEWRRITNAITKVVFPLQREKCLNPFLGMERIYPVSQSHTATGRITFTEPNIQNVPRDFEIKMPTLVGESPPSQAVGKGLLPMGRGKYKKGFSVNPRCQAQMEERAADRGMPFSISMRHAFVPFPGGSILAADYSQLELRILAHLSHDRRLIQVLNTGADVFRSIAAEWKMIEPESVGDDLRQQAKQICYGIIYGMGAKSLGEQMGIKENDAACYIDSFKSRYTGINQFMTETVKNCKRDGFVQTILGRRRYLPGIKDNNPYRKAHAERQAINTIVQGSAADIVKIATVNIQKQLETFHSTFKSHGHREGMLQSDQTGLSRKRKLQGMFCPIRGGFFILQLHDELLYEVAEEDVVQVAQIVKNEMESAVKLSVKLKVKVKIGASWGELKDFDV
Effect on: enzyme activity
Mode: inhibitor
Tested at: 77 µM
Structure (SMILES)	remaining activity [%]
O=C1NC(=O)/C(=C/c2ccc3c(c2)OC(F)(F)O3)S1	71.6
CCCSc1ccc2[nH]c(NC(=O)OC)nc2c1	102
CC(C)(O)[C@H]1CC[C@@](C)([C@H]2[C@@H](O)C[C@@]3(C)[C@@H]4C[C@H](O[C@@H]5O[C@H](CO)[C@@H](O)[C@H](O)[C@H]5O)[C@H]5C(C)(C)[C@@H](O[C@@H]6OC[C@@H](O)[C@H](O)[C@H]6O)CC[C@@]56C[C@@]46CC[C@]23C)O1	103
CC(=O)[C@H]1CC[C@H]2[C@@H]3CC=C4C[C@@H](OS(=O)(=O)O)CC[C@]4(C)[C@H]3CC[C@]12C	86.6
CN1[C@@H](CC(=O)c2ccccc2)CCC[C@H]1C[C@H](O)c1ccccc1	102
CN1CCN(C(=O)c2cc3cc(Cl)ccc3[nH]2)CC1	99.8
O=C(NCC1CCCCN1)c1cc(OCC(F)(F)F)ccc1OCC(F)(F)F (centres unmarked)	110
CN1CCN(CCCN2c3ccccc3Sc3ccc(Cl)cc32)CC1	108
CC(C)NC[C@@H](O)COc1ccc(CC(N)=O)cc1	93.6
Clc1ccc2c(c1)C(N1CCNCC1)=Nc1ccccc1O2	93.4
CCCCCCCCCC[Si](C)(C)CCC(=O)NC(Cc1ccc(C)cc1)c1ccccc1 (centres unmarked)	105
COc1c2occc2cc2ccc(=O)oc12	94.8
COc1ccc2c(c1)CC[C@@H]1[C@@H]2CC[C@]2(C)[C@@H](NCCCCCCN3C(=O)CCC3=O)CC[C@@H]12	110
CN(C)C(=O)C(CCN1CCC(O)(c2ccc(Cl)cc2)CC1)(c1ccccc1)c1ccccc1	105
C[N+]1(C)CCC(OC(=O)C(O)(c2ccccc2)C2CCCC2)C1 (centres unmarked)	100

Sample 2
Cell line: normal-adjacent organoid sample E
Method: CellTiter-Glo
Tested at: 1 µM
Notes: replicate mean
Baseline: DMSO
SMILES	viability
O=C(NCCN1CCOCC1)c1ccc2c(c1)C(=O)c1ccc(Nc3ccc(F)c(NC(=O)c4ccccc4)c3)cc1CC2	85.6%
CO[C@@H](C)c1c(Nc2ccc([C@H](N(C)C(=O)C3CCS(=O)(=O)CC3)C(F)(F)F)cc2)cnc2cc(Cl)nn12	97.3%
CC(=O)C1=C(C)N(c2cccc(C(F)(F)F)c2)C(=O)N[C@H]1c1ccc(C#N)nc1	113%
CN1CCN(C(=O)C(C)(C)c2ccc(C(=O)Nc3cn4cc(-c5ccncc5)ccc4n3)cc2)CC1	40.2%
CC(=O)Nc1c(F)cc(C(=O)N[C@H]2CC[C@H](O)CC2)cc1O[C@@H](C)c1ccccc1	89.2%
CCCCN(CCCC)C(=O)CN1C[C@@H](c2cc(OC)c3c(c2)OCO3)[C@H](C(=O)O)[C@H]1CC(C)(C)CCC	116%
Cn1c(-c2csc(C3CCN(Cc4nc5ncccc5[nH]4)CC3)n2)nc2ccccc21	114%
Cn1nc(C(=O)NCc2ccc(C(=O)O)cc2)cc1-c1ccc2[nH]ccc2c1	101%
Cc1ccc2nc(CNCCCOc3ccccc3)cc(O)c2c1	117%
Cc1ccc2[nH]c(CNCCCc3ccncc3)cc(=O)c2c1	102%
Cc1cnc(-c2cc(Cl)ccc2F)cc1-n1c(=O)n(CC(N)=O)c2cnccc21	120%
Cc1c(C(=O)O)cc(-c2ccc(C3CCNCC3)cc2)c2ccc(-c3ccc(C(F)(F)F)cc3)cc12	109%
O=C(Nc1cnc(Oc2ccc(F)cc2)nc1)N1CCc2ncccc2[C@@H]1c1ccc(F)cc1	167%
Cc1c(Oc2ccc(F)cc2)c(OC(C)C)nn1-c1ccc(C2CC2)cn1	106%
C[C@H](NC(=O)Nc1cc2[nH]ncc2c(CO)n1)c1ccccn1	124%

Sample 3
Species: mouse
Matrix: microsomes or S9
Tested at: 2 µM
Time: 0.5 h
SMILES	remaining compound [%]
CNCc1cc(N(C)C)nc(C2CCCN2S(=O)(=O)c2ccc3c(c2)CC(=O)N3C)n1 (centres unmarked)	87.7
c1cnc2c(C3NCCc4c3[nH]c3ccccc43)cccc2c1 (centres unmarked)	8.89
COc1ccc(-c2nnc(N)n2-c2ccc(C)cc2)c(OC)c1	88.4
Nc1ccc2nn(-c3ccccc3)nc2c1Br	6.78
CC(OC(=O)c1cc2[nH]cnc2cc1F)c1nc2ncc(Br)cc2[nH]1 (centres unmarked)	0.0543
CCOc1cc(CNCCc2ccc(S(N)(=O)=O)cc2)ccc1OCc1ccccc1	54.2
CCC1c2c(OC)c3c(c(OC)c2C(c2cc(OC)c4c(c2OC)OCO4)C1C)OCO3 (centres unmarked)	26.2
CC(=O)c1c(O)c(-c2ccc(Cl)cc2)c[nH]c1=O	48.2
Cc1c(C(=O)NCC(C)c2ccccc2)oc2ccc3c(c12)C=CC1(CCCC1)O3 (centres unmarked)	58.2
c1ccc(-c2nnc(CNCCN3CCOCC3)o2)cc1	88.8
CN(C(=O)CN(c1ccc(Cl)c(Cl)c1)S(=O)(=O)c1ccccc1)C(CN1CCCC1)c1ccc(-c2cccnc2)cc1 (centres unmarked)	3.63
CCc1nccn1-c1cc(C)nc2c(-c3ccc(Cl)cc3)cnn12	46.5

Sample 4
Target: Ephrin type-B receptor 2 (EPHB2, Homo sapiens, UniProt P29323)
Sequence of UniProt P29323 (whole entry, looked up): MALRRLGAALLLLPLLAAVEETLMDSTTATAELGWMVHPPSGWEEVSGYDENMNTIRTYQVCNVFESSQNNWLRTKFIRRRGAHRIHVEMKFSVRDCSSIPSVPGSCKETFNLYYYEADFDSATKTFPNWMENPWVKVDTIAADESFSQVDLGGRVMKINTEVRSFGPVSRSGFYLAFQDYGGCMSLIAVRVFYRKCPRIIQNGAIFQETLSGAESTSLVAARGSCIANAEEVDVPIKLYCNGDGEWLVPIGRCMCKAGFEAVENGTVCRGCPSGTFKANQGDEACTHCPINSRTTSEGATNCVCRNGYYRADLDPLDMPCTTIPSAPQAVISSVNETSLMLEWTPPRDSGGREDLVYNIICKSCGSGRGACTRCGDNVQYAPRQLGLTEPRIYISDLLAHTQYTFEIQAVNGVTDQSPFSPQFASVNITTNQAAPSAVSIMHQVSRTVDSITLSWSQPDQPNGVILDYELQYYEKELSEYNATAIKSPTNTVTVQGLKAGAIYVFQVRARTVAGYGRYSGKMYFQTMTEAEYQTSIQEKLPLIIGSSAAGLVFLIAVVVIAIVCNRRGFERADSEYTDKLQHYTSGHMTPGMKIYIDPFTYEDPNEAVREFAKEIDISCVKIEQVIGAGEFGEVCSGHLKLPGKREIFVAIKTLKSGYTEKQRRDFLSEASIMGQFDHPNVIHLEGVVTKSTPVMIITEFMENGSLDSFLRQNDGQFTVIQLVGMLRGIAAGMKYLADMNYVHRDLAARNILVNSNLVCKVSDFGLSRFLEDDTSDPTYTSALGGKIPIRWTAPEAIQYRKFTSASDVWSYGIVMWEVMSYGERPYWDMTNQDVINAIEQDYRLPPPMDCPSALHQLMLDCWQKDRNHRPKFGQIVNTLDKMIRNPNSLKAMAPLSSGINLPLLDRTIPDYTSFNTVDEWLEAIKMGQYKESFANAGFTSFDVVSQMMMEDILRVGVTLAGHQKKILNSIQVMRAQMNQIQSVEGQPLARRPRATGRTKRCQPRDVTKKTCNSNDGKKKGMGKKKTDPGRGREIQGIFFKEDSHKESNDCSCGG
Effect on: enzyme activity
Mode: inhibitor
Tested at: 0.5 µM
Baseline: control
Compound	remaining activity
O=C(c1ccccc1)c1ccc(N2CCOCC2)cc1O	94.9%
N#C/C(=C(/N)SC1C=CC=CC1)c1cccc(C(O)c2ccncc2)c1 (centres unmarked)	103%
FC(F)(F)c1ccc(/C=C/c2nc(COc3ccc(CCCCn4ccnn4)cc3)co2)cc1	98.3%
CC(C)N(CCC(=O)c1ccc2ccccc2c1)Cc1ccccc1	102%
Clc1ccc(Nc2nnc(Cc3ccncc3)c3ccccc23)cc1	107%
C[C@@H](N)[C@H]1CC[C@H](C(=O)Nc2ccncc2)CC1	78.9%
O=Nc1c(-c2c(O)[nH]c3ccccc23)[nH]c2ccccc12	83.3%
CC(C)(C)c1nc2c3cc[nH]c(=O)c3c3cc(F)ccc3c2[nH]1	92.8%
O=c1c(-c2ccc(F)cc2)c(-c2ccncc2)[nH]n1-c1ccc(Cl)cc1	101%
O=C(O)/C=C/c1cc(Br)c(Br)c(Br)c1Br	103%
NC(=O)c1ccc(-c2nc(-c3ccc4c(c3)OCCO4)c(-c3ccccn3)[nH]2)cc1	97.6%
COc1cc2c(Nc3ccc(Br)cc3F)ncnc2cc1OCC1CCN(C)CC1	24.4%
c1cc(-c2cnn3cc(-c4ccc(OCCN5CCCCC5)cc4)cnc23)ccn1	33.6%
CCN(CC)CCCCN1c2ccccc2Oc2ccc(Cl)cc21	107%
NC(=O)c1cccc(-c2cc(Nc3ccc(OC(F)(F)F)cc3)ncn2)c1	102%
COc1cc2c(N3CCN(C(=O)Nc4ccc(OC(C)C)cc4)CC3)ncnc2cc1OCCCN1CCCCC1	97.6%
CC(C)n1cnc2c(Nc3cccc(Cl)c3)nc(NCCO)nc21	89.8%
Nc1nc(Nc2ccc(S(N)(=O)=O)cc2)nn1C(=S)Nc1c(F)cccc1F	81.4%
O=C1c2ccccc2-c2nc3nnnn3nc21	86.1%
CCCCc1c(-c2ccc(O)cc2)[nH]c2nccnc12	92.3%
CNc1cc2c(Nc3cccc(Br)c3)ncnc2cn1	91.2%
O=C1NC(=O)/C(=C/c2ccc3c(c2)OC(F)(F)O3)S1	95.8%
N#CC(c1ccnc(NCCc2cccnc2)n1)c1nc2ccccc2s1 (centres unmarked)	112%

Excerpt of the above (sample 2):
SMILES	viability
Cc1ccc2[nH]c(CNCCCc3ccncc3)cc(=O)c2c1	102%
Cc1cnc(-c2cc(Cl)ccc2F)cc1-n1c(=O)n(CC(N)=O)c2cnccc21	120%
Cc1c(C(=O)O)cc(-c2ccc(C3CCNCC3)cc2)c2ccc(-c3ccc(C(F)(F)F)cc3)cc12	109%
O=C(Nc1cnc(Oc2ccc(F)cc2)nc1)N1CCc2ncccc2[C@@H]1c1ccc(F)cc1	167%
Cc1c(Oc2ccc(F)cc2)c(OC(C)C)nn1-c1ccc(C2CC2)cn1	106%
C[C@H](NC(=O)Nc1cc2[nH]ncc2c(CO)n1)c1ccccn1	124%
